Measurements from different studies.
Lines come from different studies, so protocols differ. Numbers after ± are the reported error.

| Compound | cell line | assay | conditions | IC50 [µM] |
| --- | --- | --- | --- | --- |
| O=C1NN=C(N=Cc2ccccc2)C1=NNn1c(-c2ccccc2)nc2ccccc2c1=O | NIH 3T3 | cytotoxicity, MTT | – | 156 |
| Cc1c(O)cc(C[C@]23C[C@H](C[C@H](C)O2)c2c4c(c(O)c(C)c2O3)CO[C@@]2(C4)C[C@@H](O)C[C@H](C)O2)c(C=O)c1O | A549 | cell growth or viability | – | 16.4 |
| CC(=O)NCN1N=C(C)C(=NNn2c(-c3ccccc3)nc3ccccc3c2=O)C1=O | NIH 3T3 | cytotoxicity, MTT | – | 272 |
| Nc1ncnc2c1ncn2[C@H]1CC[C@@H](CO)O1 | CEM-CCRF | cell growth, trypan blue exclusion | 6 d | > 100 |
| CCCC[P+](CCCC)(CCCC)CCCC | Caco-2 | – | – | 16500 ± 3240 |
| C=C(C[C@@H]1CCOc2ccccc21)c1cccc(C)c1 | RAW264.7 | cytotoxicity, CCK-8 | 24 h | 128 |
| O=C1NN=C(N=Cc2ccc(O)cc2O)C1=NNn1c(-c2ccccc2)nc2ccccc2c1=O | NIH 3T3 | cytotoxicity, MTT | – | 223 |
| C=C(C[C@@H]1CCOc2ccccc21)c1ccc(Cl)cc1 | RAW264.7 | cytotoxicity, CCK-8 | 24 h | 94.9 |
| O=c1[nH]c(=O)n([C@H]2C[C@H](O)[C@@H](CO)O2)cc1I | CEM-CCRF | cell growth, trypan blue exclusion | 6 d | 2.7 |
| C=C(C[C@@H]1CCOc2ccccc21)c1ccccc1C | RAW264.7 | cytotoxicity, CCK-8 | 24 h | 184 |
| CC1=NN(CNc2ccccn2)C(=O)C1=NNn1c(-c2ccccc2)nc2ccccc2c1=O | NIH 3T3 | cytotoxicity, MTT | – | 87 |
| C=C(C[C@@H]1CCOc2ccccc21)c1ccc(F)cc1 | RAW264.7 | cytotoxicity, CCK-8 | 24 h | 28.2 |
| O=c1[nH]c(=O)n([C@H]2C[C@H](OP(=O)(O)OC[C@H]3O[C@H](O)[C@H](O)[C@@H](O)[C@@H]3O)[C@@H](CO)O2)cc1I | CEM-CCRF | cell growth, trypan blue exclusion | 6 d | 76 |
| C=C(C[C@@H]1CCOc2ccc(Br)cc21)c1ccccc1 | RAW264.7 | cytotoxicity, CCK-8 | 24 h | 57 |
| CCCCCOC(=O)Nc1nc(=O)n([C@@H]2O[C@H](C)[C@@H](O)[C@H]2O)cc1F | NHDF | MTT | 72 h, 10% FBS | > 200 |

A few entries again:
| Compound | cell line | assay | conditions | IC50 [µM] |
| --- | --- | --- | --- | --- |
| O=C1NN=C(N=Cc2ccc(O)cc2O)C1=NNn1c(-c2ccccc2)nc2ccccc2c1=O | NIH 3T3 | cytotoxicity, MTT | – | 223 |
| Cc1c(O)cc(C[C@]23C[C@H](C[C@H](C)O2)c2c4c(c(O)c(C)c2O3)CO[C@@]2(C4)C[C@@H](O)C[C@H](C)O2)c(C=O)c1O | A549 | cell growth or viability | – | 16.4 |
